# Published values gathered from unrelated publications.
# A part holds a random share of what one study measured.

# Sample 1 — method: universal PBM; form: double-stranded DNA, one strand shown; sample: in vitro; concentration: 600 nM; reading: higher = stronger binding
# Target: Sal-like protein 4, full length isoform A (SALL4, Homo sapiens, UniProt Q9UJQ4, residues 1-1053)
# Chain of UniProt Q9UJQ4 (whole entry, looked up): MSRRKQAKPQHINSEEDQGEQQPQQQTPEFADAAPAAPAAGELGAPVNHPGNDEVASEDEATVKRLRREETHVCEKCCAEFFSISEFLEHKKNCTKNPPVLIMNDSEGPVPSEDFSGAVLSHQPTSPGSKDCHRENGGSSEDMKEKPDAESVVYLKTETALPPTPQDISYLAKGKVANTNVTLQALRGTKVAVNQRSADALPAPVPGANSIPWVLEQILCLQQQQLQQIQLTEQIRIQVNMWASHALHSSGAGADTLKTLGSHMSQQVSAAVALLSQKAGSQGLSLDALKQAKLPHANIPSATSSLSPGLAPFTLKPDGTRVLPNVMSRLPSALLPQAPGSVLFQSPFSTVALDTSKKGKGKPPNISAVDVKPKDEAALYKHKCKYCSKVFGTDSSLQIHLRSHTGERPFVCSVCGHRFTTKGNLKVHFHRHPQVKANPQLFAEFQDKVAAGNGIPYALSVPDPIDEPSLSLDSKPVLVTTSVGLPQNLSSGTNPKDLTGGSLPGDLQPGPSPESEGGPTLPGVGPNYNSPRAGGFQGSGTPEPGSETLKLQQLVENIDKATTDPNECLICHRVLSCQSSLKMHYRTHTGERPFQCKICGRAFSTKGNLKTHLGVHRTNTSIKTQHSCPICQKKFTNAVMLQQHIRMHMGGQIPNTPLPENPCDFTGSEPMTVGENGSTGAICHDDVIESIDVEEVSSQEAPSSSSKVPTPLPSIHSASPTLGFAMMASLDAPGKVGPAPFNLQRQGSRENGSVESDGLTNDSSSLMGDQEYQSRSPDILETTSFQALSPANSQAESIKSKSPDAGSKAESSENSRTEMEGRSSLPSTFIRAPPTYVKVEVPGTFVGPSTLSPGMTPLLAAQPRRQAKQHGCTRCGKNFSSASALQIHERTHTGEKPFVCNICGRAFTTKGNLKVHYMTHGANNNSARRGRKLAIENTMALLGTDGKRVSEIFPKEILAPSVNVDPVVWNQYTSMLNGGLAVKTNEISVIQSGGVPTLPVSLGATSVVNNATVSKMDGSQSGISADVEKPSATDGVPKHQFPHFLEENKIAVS
# Setting: 8-mer, flanks averaged, mean of replicates
Strand,E-score
ATCACAGC,0.055
AACGGCCC,-0.245
TACTAGCA,0.11
CAGTTTCA,0.0298
GTGCTAGA,-0.0248
GCAAGACA,0.0602
CGCATTTC,0.0314
GGTGGAAA,-0.137
ATCTCGCG,0.0444
AATGATAA,0.37
GCGACAGC,-0.18
GCTACTAC,0.171
GCGTCGGA,-0.267
TGACAACA,0.13
CCTCAAGG,-0.262
CAACTACC,-0.0163
ACAGGTTC,-0.102
ACTACATG,0.134
CGGTGTAA,-0.174
CAGATGGG,-0.121
TGAAACAA,0.262
AAGTAATG,0.184
CCCCGTTA,-0.131
AACCTTAG,0.0152

# Sample 2 — method: protein binding microarray; form: double-stranded DNA, one strand shown; sample: in vitro; concentration: not given; reference: not given; reading: higher = stronger binding
# Target: Histone acetyltransferase KAT6A, both winged helices, GST fusion (KAT6A, Homo sapiens, UniProt Q92794, residues 1-181)
# Setting: 8-mer, flanks averaged, mean of 2 arrays, mostly near background
# Target sequence (chain): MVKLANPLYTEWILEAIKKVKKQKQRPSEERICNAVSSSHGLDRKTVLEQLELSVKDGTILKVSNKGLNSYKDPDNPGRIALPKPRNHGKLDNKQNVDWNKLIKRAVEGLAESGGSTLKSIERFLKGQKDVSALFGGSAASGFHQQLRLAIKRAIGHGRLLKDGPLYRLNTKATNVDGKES
Strand,E-score
GTATCTCA,-0.0375
CTGCTTTA,-0.0836
ACTCCGCC,0.21
GCGATCGC,0.289
CACTAGTA,-0.0877
CTGGTACC,-0.0457
AATCGACG,0.106
AATGCAGC,-0.0891
CGTAACTA,0.0181
GGGACGAC,-0.0784
TATAGGCA,-0.144
GGGTTGGA,-0.149
ACGGAGAG,0.106
ATTTATAG,-0.215
CCTTGGTC,-0.0876
TCGCAAGA,0.028
AATAACCC,0.0183
GACTAGTA,-0.0518
GTGCATTA,0.0243
ATTAGAAA,-0.109
CTCATAAA,0.0967
CAGCGGAG,0.113
CTAGTCGA,-0.12
AAAAACCT,-0.276
CGTTTTTC,0.11

# Sample 3 — method: RNA Bind-n-Seq; form: RNA; sample: in vitro; concentration: 200 nM; setting: whole 134-nt RNA, ends assumed; with: 150 mM KCl; reference: input library; reading: higher = stronger binding
# Target: Fragile X messenger ribonucleoprotein 1, C-terminal low-complexity region (Fmr1, Mus musculus, UniProt P35922)
Strand,log2 enrichment
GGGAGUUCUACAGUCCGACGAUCUGGUCAUGGGAUGGAGAACCAGUUCUUCCCUUAUAUCUUCACCAUAUGACUAUUGACCCUGUCUUAGGCUGCUCCCAGGCCGUUCCAUUGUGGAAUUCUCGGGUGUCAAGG,1.23
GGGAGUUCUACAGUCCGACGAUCUCAAGUCCUGUGCUACACAUCGUAUGUACCGAAUCGGAAAGGAAAGGGAAAGGGAAAGUAUUAUGUUACGCCGUUCGGAUCUGCACUUCCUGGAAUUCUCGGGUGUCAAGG,-0.379
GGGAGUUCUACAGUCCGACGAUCGCAGGAAGUAAAAACAAAUGGAAAUGCUUCGGAUAGUGGCAGGGGUGGGGGUUGCUAAGGAAAGGAAAGGAUGGGAGUGGGUAAAGAGUUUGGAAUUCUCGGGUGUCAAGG,0.0647
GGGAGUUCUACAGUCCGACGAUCUCAAGUCCUGUGCUACACAUCGUAUGUACCGAAUCGGGGCCGGGGCCGGCCGGGGAAAGUAUUAUGUUACGCCGUUCGGAUCUGCACUUCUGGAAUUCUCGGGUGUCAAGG,-0.339
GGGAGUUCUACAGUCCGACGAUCUUGGAGGUGGAUUUUGUUUAUUUUUUUAGCUCAUUUCCAGGGGUGGGAAUUUUUUUUUAAUAUGUGUCAUGAAUAAAGUUGUUUUUGAAAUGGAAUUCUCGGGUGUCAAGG,-0.579
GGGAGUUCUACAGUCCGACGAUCCACAGACAACACGCACCCACACAGACACAGAGGGAAGGGGUUGGGAUGGGGACAGGGUGCACAGCAGGGCGCGGUAGGACCCCAGCCCCUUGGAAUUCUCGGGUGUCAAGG,1.01
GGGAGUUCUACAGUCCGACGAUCACCAUGCAGGUGGGCAUCUUUGGGAAGUGGGGCAAGGGGGGGAUAGGGAGGGGGGUAACACUUUGGGAACAGGUGGUCCCAGGUGGUUUCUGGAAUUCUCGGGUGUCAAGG,0.816
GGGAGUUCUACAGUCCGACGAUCUGGCCCUGGUGGCAUGCGGGGAGGAAGAGGUGGCCUCAUGGAUCGUGGUGGUCCCGGUGGAAUGUUCUGAGGUGGCCGUGGUGGAGACAGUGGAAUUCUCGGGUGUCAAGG,-0.00646
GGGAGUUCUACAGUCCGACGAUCUCCUGUGCUACACAUCGUAUGUACCGAAUCGGGUUUUUUGGGGUUUUUUGGGUUUUUUGGAAAGUAUUAUGUUACGCCGUUCGGAUCUGCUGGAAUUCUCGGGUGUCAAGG,0.367
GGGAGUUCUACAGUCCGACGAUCUGGAUAUGGUUAUAGAAGAAGUGGCCGAGAUAAAUAUGGCCCUCCUACUCGCACAGAGUACAGACUUAUUGUGGAGAAUUUGUCAAGUCGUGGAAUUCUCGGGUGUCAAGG,-0.987

# Sample 4 — method: RNA Bind-n-Seq; form: RNA; sample: in vitro; concentration: not given; setting: RNA with constant flanks, ends assumed; reference: input RNA pool; reading: higher = stronger binding
# Target: RING finger protein unkempt homolog, zinc fingers 1-6, GST-SBP tag (UNK, Homo sapiens, UniProt Q9C0B0, residues 30-357)
# Target sequence (chain): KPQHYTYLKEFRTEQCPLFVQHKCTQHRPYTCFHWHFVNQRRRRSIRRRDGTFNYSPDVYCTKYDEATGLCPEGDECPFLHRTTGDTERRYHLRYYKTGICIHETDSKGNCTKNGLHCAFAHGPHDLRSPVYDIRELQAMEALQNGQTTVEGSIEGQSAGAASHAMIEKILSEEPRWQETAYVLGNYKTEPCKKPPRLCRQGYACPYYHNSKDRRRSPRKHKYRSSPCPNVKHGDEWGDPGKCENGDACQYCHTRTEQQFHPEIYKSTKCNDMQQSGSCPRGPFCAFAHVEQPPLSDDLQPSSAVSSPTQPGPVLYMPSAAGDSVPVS
Strand,bound/input enrichment [ratio]
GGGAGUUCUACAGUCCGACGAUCUAUUGAAUUGCUGAGGAUUUUGGGAAAAGACAAAUCAAAGUUCCCAUUCCAUGGAUCCCUCCGGUGCACCUUCCCAGUUUGUGGAUGUGGAUACACUACCAAGCUGGGGUGACUCAUGCCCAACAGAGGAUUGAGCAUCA,0.0977
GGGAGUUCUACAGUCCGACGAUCUCGGUACUUGAUUCAGCUCUUCAUCCACCACCCCGUGGACCUUUUCCUCCAGGAGAUAUUUUCCGUCAACCAGAAAGACCUUUUUUAGCUCCUGGAAGACAAAGCGUAGACAAUGUUACUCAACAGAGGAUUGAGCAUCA,0.178
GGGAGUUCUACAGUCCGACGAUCGACUAUCACUUUGUCAUUUCUAGAGAACAAAUGGAGAAAGAUAUCCAAGAGCACAAAUUUACCGAAGCUGGCCAGUACAAUGACAAUUUAUACGGAACCAGUGUGCAAUCUGUGAGAUUUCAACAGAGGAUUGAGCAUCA,0.315
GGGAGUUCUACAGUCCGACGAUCUGAUGACUGCAUAGCAAACUGGCAGAUACAGUCCCCAUGGUCAGUGGCUGACCAGGGUGUCACCGGCGCGAUCUCAAUUGCUAGAUGUGAGCACACGCUUGACAGUCUGUUUAGAAAUGUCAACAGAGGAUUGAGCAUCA,0.218
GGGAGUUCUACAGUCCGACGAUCUGUCACUGUGGGUAUAUCUUAUGCAUGUCAUUCAAUUGGUCAGAUUGGUUCUGUAUGGUUUUCCGUGGGCAUACAAACUAGUUAGUUCUUUUCACUUAAAUUUUAAAGGAGGAAGUUACCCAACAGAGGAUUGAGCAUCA,2.2
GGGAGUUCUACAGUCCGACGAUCAUUAAGCAGGCUCUUCCCCAGUACGUGUUUUCUGAGCCAUGCAUACCCUCUCCUUGGCCUCCGGUUUACUCUCAAGUGUUCCCUCUAUUCUCAUGCGUCCCACUUUGGGUCUGUACAAUCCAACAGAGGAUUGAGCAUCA,0.176
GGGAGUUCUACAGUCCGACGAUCCUGCUCCUCUCCUGGGCGGCGGGGCUGGGAGGUCAGUAUGGAAAUCCUUUAAAUAAAUAUAUCCGACAUUAUGAAGGAUUAUCUUACAAUGUGGAUUCAUUACACCAAAAACACCAGCGUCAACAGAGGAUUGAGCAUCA,0.336
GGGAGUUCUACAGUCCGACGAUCAUCUUUGGCUAGUGCUUUUCAAUUAUCUGAAGAUGGAGACUCAAUUCCUUAUACUAUUAACCGGUACUUGCGAGAUUACCAAAGGGAGGGGGCUCAGUUCCUCUACAGACACUACAUAGACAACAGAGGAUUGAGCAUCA,0.61
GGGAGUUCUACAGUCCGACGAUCGCAAGAGAUGAUGAGGCAGCUGCAGUUGCACUUUCCUCCCUGAUUCAUGCUUUGGAUGACUCCGACAUGGUGGCCAUAGUUCGAUAUGCUUAUGACAAAAGAGCUAAUCCUCAAGUCGGCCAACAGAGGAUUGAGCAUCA,0.329
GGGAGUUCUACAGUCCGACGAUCGACCCCCACUCCCUGUGAGAGGGAAUGGGGGAAGCCUGAUGACCCUCAGCUGUUCCAAUCCCGUAUUUUUUUUCUUUUUUAAAAUUACUGUAUUUAUUAUGACGAUGGUGACUCCCCAGUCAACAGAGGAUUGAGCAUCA,3.95
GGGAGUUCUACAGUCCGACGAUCGGCUUUGCUUUACUUUUUUACCUUGAACAACUGCUUGGAGGACCAGAGAUUUUCCCCGGAUUCUUAAAAGCUUAUGUUGAGAAGUUUUCCUAUAAGAGCAUAACUACUGAUGACUGGAAGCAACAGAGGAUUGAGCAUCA,0.217

# For quick reference, copied from above (sample 4):
Strand,bound/input enrichment [ratio]
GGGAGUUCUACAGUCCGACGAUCUAUUGAAUUGCUGAGGAUUUUGGGAAAAGACAAAUCAAAGUUCCCAUUCCAUGGAUCCCUCCGGUGCACCUUCCCAGUUUGUGGAUGUGGAUACACUACCAAGCUGGGGUGACUCAUGCCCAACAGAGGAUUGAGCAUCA,0.0977
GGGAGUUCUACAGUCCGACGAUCUCGGUACUUGAUUCAGCUCUUCAUCCACCACCCCGUGGACCUUUUCCUCCAGGAGAUAUUUUCCGUCAACCAGAAAGACCUUUUUUAGCUCCUGGAAGACAAAGCGUAGACAAUGUUACUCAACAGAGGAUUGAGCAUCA,0.178
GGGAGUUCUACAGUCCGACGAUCGACUAUCACUUUGUCAUUUCUAGAGAACAAAUGGAGAAAGAUAUCCAAGAGCACAAAUUUACCGAAGCUGGCCAGUACAAUGACAAUUUAUACGGAACCAGUGUGCAAUCUGUGAGAUUUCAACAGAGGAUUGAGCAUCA,0.315
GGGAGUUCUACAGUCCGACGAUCUGAUGACUGCAUAGCAAACUGGCAGAUACAGUCCCCAUGGUCAGUGGCUGACCAGGGUGUCACCGGCGCGAUCUCAAUUGCUAGAUGUGAGCACACGCUUGACAGUCUGUUUAGAAAUGUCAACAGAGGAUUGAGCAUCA,0.218
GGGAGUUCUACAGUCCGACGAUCUGUCACUGUGGGUAUAUCUUAUGCAUGUCAUUCAAUUGGUCAGAUUGGUUCUGUAUGGUUUUCCGUGGGCAUACAAACUAGUUAGUUCUUUUCACUUAAAUUUUAAAGGAGGAAGUUACCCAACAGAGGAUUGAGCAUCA,2.2
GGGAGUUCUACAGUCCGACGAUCAUUAAGCAGGCUCUUCCCCAGUACGUGUUUUCUGAGCCAUGCAUACCCUCUCCUUGGCCUCCGGUUUACUCUCAAGUGUUCCCUCUAUUCUCAUGCGUCCCACUUUGGGUCUGUACAAUCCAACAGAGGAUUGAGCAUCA,0.176
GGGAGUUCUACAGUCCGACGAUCCUGCUCCUCUCCUGGGCGGCGGGGCUGGGAGGUCAGUAUGGAAAUCCUUUAAAUAAAUAUAUCCGACAUUAUGAAGGAUUAUCUUACAAUGUGGAUUCAUUACACCAAAAACACCAGCGUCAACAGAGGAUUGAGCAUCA,0.336
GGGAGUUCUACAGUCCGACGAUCAUCUUUGGCUAGUGCUUUUCAAUUAUCUGAAGAUGGAGACUCAAUUCCUUAUACUAUUAACCGGUACUUGCGAGAUUACCAAAGGGAGGGGGCUCAGUUCCUCUACAGACACUACAUAGACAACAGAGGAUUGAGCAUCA,0.61
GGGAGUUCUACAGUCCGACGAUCGCAAGAGAUGAUGAGGCAGCUGCAGUUGCACUUUCCUCCCUGAUUCAUGCUUUGGAUGACUCCGACAUGGUGGCCAUAGUUCGAUAUGCUUAUGACAAAAGAGCUAAUCCUCAAGUCGGCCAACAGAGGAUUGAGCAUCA,0.329
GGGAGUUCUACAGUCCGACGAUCGACCCCCACUCCCUGUGAGAGGGAAUGGGGGAAGCCUGAUGACCCUCAGCUGUUCCAAUCCCGUAUUUUUUUUCUUUUUUAAAAUUACUGUAUUUAUUAUGACGAUGGUGACUCCCCAGUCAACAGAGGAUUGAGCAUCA,3.95
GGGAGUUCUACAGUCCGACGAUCGGCUUUGCUUUACUUUUUUACCUUGAACAACUGCUUGGAGGACCAGAGAUUUUCCCCGGAUUCUUAAAAGCUUAUGUUGAGAAGUUUUCCUAUAAGAGCAUAACUACUGAUGACUGGAAGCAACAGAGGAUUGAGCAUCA,0.217
